Results from different studies.
Each numbered part is a random draw from the data of one study; scales do not carry over between parts. Values joined by “and” are separate records of one study, mostly repeats; a detail may differ.
Chain of UniProt O00238 (whole entry, looked up): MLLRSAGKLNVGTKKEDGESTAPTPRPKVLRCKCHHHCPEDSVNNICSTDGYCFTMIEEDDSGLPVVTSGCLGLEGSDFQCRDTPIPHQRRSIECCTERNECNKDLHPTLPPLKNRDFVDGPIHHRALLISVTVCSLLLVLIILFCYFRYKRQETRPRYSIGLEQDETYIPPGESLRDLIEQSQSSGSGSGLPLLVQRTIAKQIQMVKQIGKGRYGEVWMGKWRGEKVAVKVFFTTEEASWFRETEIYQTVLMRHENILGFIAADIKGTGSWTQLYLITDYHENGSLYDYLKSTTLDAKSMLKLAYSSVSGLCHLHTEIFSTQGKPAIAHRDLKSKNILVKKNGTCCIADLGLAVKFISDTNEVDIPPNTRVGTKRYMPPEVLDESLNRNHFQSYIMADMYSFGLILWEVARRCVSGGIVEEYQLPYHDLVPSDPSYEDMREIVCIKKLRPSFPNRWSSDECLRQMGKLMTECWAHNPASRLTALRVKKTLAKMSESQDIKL
Chain of UniProt P42336 (whole entry, unmodified, looked up): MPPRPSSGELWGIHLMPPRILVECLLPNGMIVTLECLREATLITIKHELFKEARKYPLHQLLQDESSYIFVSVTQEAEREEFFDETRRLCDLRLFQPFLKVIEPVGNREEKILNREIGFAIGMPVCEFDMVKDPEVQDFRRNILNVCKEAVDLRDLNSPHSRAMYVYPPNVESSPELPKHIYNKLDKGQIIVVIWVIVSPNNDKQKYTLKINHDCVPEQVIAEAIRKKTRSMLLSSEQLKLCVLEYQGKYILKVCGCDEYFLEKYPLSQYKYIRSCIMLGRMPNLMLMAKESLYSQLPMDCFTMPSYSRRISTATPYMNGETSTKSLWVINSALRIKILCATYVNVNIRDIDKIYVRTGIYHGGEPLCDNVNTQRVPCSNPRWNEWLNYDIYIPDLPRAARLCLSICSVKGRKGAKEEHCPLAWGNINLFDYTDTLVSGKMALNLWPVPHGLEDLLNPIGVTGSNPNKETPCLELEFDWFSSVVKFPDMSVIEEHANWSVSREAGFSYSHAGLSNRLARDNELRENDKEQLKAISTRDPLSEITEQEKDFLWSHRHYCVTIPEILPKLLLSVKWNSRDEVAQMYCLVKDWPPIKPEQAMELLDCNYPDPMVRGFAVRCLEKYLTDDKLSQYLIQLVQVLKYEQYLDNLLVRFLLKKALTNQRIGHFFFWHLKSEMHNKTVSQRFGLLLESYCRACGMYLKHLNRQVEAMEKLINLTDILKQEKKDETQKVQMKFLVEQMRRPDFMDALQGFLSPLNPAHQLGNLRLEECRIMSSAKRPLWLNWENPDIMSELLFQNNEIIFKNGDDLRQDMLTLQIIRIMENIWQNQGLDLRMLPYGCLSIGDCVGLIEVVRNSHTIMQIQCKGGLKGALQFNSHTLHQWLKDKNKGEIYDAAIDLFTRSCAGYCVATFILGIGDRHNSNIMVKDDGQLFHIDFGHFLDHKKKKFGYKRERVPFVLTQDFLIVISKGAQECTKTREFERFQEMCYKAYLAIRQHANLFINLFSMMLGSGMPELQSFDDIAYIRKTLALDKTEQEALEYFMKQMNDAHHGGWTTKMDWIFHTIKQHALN
Chain of UniProt Q9Y6R4 (whole entry, looked up): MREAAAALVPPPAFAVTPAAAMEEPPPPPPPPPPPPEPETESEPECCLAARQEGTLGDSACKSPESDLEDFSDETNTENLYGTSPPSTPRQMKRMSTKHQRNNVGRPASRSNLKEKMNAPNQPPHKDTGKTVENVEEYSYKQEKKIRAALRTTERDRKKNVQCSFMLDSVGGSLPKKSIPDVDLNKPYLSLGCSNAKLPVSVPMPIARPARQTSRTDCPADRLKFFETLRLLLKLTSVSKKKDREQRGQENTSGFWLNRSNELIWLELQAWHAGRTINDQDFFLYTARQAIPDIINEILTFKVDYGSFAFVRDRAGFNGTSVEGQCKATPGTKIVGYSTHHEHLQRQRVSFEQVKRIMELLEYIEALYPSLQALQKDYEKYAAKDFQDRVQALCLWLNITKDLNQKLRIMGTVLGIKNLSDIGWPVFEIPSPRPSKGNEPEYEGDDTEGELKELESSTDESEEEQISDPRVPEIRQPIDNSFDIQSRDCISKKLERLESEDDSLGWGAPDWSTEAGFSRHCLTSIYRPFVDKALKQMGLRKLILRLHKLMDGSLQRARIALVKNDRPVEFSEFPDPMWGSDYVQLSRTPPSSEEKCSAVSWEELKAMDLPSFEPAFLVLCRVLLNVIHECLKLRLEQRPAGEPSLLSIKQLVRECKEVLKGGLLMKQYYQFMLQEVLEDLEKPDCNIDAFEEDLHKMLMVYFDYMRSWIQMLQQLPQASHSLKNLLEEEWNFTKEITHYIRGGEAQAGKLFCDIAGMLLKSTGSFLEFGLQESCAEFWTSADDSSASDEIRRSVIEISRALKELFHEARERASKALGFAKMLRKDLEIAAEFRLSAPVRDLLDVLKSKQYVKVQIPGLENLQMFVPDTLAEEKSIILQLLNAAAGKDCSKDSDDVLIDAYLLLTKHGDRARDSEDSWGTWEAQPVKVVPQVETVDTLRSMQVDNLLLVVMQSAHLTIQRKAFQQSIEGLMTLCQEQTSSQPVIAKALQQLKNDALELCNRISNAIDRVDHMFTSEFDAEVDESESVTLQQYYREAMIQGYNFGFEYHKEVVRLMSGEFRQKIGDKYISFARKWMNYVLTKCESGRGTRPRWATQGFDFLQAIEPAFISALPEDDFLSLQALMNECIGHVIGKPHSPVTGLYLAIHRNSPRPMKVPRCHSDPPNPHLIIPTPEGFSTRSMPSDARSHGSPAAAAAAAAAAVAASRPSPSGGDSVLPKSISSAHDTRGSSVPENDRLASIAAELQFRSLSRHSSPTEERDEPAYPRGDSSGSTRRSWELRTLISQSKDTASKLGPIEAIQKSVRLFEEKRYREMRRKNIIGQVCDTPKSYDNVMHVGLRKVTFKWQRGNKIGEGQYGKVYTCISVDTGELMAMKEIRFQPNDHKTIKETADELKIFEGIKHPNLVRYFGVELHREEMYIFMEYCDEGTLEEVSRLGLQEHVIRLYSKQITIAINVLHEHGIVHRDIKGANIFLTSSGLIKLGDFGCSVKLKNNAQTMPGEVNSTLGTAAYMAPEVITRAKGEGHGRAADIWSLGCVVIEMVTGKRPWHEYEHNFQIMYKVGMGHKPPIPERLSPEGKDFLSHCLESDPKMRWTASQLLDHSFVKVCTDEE

Series 1 — read-out: cell-free assay; technique: competition with immobilised ligand; concentration: 1 µM
SMILES: CN([C@@H]1CCc2c(CC(=O)O)c3ccccc3n2C1)S(=O)(=O)c1ccc(F)cc1
target | remaining binding
Receptor-type tyrosine-protein kinase FLT3, autoinhibited (FLT3, Homo sapiens, UniProt P36888) | 100%
Bone morphogenetic protein receptor type-1B (BMPR1B, Homo sapiens, UniProt O00238) | 100%
Phosphatidylinositol 4,5-bisphosphate 3-kinase catalytic subunit alpha isoform (PIK3CA, Homo sapiens, UniProt P42336, Q546K) | 100%
Mitogen-activated protein kinase kinase kinase 4 (MAP3K4, Homo sapiens, UniProt Q9Y6R4) | 87%

Series 2 — read-out: enzyme activity; mode: inhibitor; concentration: 0.5 µM; baseline: control
Target: Cyclin-dependent kinase 5, with p35 (CDK5, Homo sapiens, UniProt Q00535)
Chain of UniProt Q00535 (whole entry, looked up): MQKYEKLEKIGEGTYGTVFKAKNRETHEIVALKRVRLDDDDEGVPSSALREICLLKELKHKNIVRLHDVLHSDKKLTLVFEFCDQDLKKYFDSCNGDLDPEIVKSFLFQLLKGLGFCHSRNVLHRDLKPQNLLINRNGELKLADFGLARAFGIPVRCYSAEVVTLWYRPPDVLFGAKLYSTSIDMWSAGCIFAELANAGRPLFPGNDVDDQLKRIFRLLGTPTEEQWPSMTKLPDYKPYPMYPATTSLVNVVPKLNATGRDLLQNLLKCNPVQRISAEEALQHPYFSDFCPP
SMILES | remaining activity [%]
Cc1ccc(Nc2nccc(N(C)c3ccc4c(C)n(C)nc4c3)n2)cc1S(N)(=O)=O | 99.3
COc1cc2nccc(Oc3ccc(NC(=S)NC(=O)c4ccccc4C)cc3)c2cc1OC | 100
OCC(O)CCON=C1C(c2c(O)[nH]c3ccccc23)=Nc2ccccc21 (stereo not drawn) | 14.3
O=C(Nc1cccc(Nc2cc(Nc3cccc(C(F)(F)F)c3)ncn2)c1)C1CC1 | 99.5
Cc1cccc(-c2[nH]c(C(C)(C)C)nc2-c2ccc3c(c2)OCO3)n1 | 98.5
COc1ccc(OC)c2c(=S)c3ccccc3[nH]c12 | 86.4
Nc1ncnc2n[nH]c(Nc3ccc(F)cc3)c12 | 98.6
Cn1c2ccccc2c2c3c(c4c5ccccc5n(CCC#N)c4c21)CNC3=O | 8.52
Cn1sc(=O)n(Cc2ccccc2)c1=O | 90.1
N#CC(C#N)=C(N)/C(C#N)=C/c1ccc(O)cc1 | 91.9
O=c1c2ccccc2[nH]c(=S)n1CCN1CCC(=C(c2ccc(F)cc2)c2ccc(F)cc2)CC1 | 101
Nc1ccc2ncnc(NCCc3ccc(Oc4ccccc4)cc3)c2c1 | 103
NCCNc1ncc(C(N)=O)c(Nc2cccc(C(F)(F)F)c2)n1 | 84.2
CN(C)c1ccc(C=C2C(=O)Nc3ccccc32)cc1 | 104

Series 3 — cell line: mouse MPNST tumor cells; technique: high-content immunofluorescence imaging; item: nuclear SOX9; concentration: 10 µM; time: 12 h; notes: mean of 2 replicates; baseline: DMSO control; direction: higher = more nuclear SOX9
Structure (SMILES) | nuclear SOX9 intensity
Cc1ccc(Cl)c(Nc2ccccc2C(=O)O)c1Cl | 113 % of DMSO and 94.6 % of DMSO
COc1ccc(S(=O)(=O)c2cc(OC)ccc2S(=O)(=O)c2ccc([C@H](C)NS(C)(=O)=O)cc2)cc1 | 162 % of DMSO
Cc1cc(C(=O)N2Cc3cnn(C)c3Nc3ccccc32)ccc1CNC(=O)N1CCC[C@H]1C(=S)N1CCCN(C)CC1 | 97.7 % of DMSO
COc1cc(N2CCN(C)CC2)ccc1Nc1nccc(-c2cn(C)c3cnccc23)n1 | 135 % of DMSO

Series 4 — host: mouse; sample: microsomes or S9; concentration: 2 µM; time: 0.5 h
Compound | remaining compound
CCOC(=O)c1[nH]c(C)c(C(=O)CN(CC(C)C)S(=O)(=O)c2ccc(F)cc2)c1C | 0%
CCC1=NOC(CNC(=O)c2cc(C)c(CC)n(C)c2=O)C1 (stereo not drawn) | 57.6%
Cc1c(Cl)cccc1NC(=O)Cn1c2c(c(=O)n3nc(-c4ccccc4)nc13)CCC2 | 9.88%

Series 5 — read-out: AlphaScreen signal; technique: AlphaScreen counter screen; sample: His6 peptide without bromodomain; concentration: 50 µM; notes: assay interference check
SMILES | inhibition [%]
C[C@@H](Oc1ccc2[nH]nc(/C=C/c3cnn(CCO)c3)c2c1)c1c(Cl)cncc1Cl | 28.6
COc1ccc(NC(=S)Nc2ccc3nc[nH]c(=O)c3c2)cc1 | 3.8
CC(=O)Nc1ccc(Nc2nc(-c3sc(N)nc3C)cs2)cc1 | 61.5
CCOc1ccc(NC(=S)Nc2ccc3nc[nH]c(=O)c3c2)cc1 | 23.2

Further values, each from its own experiment
SMILES | assay | test system | conditions | measurement | value
CC(C)n1cnc(-c2ccc(F)cc2)c1-c1ncc(C(=O)Nc2ccc(N3CCN(C)CC3)cc2)[nH]1 | item: hepatic dysfunction | patients with idiopathic pulmonary fibrosis | 60 mg once daily, trial | patients discontinuing for adverse event | 5.6%

A few entries again (series 2):
SMILES | remaining activity [%]
Cn1sc(=O)n(Cc2ccccc2)c1=O | 90.1
Cc1ccc(Nc2nccc(N(C)c3ccc4c(C)n(C)nc4c3)n2)cc1S(N)(=O)=O | 99.3
O=C(Nc1cccc(Nc2cc(Nc3cccc(C(F)(F)F)c3)ncn2)c1)C1CC1 | 99.5
